Assay results collected from several papers.
Protocols differ between the studies behind these lines.
Partner: itself
B1: CD207 148-328 (Homo sapiens, UniProt Q9UJ71); sequence looked up; chain STLNAQIPELKSDLEKASALNTKIRALQGSLENMSKLLKRQNDILQVVSQGWKYFKGNFYYFSLIPKTWYSAEQFCVSRNSHLTSVTSESEQEFLYKTAGGLIYWIGLTKAGMEGDWSWVDDTPFNKVQSVRFWIPGEPNNAGNNEHCGNIKAPSLQAWNDAPCDKTFLFICKRPYVPSEP
B2: CLTC 1521-1654 C1528A/T1585L (Bos taurus, UniProt P49951); sequence looked up; chain WKQSVELAKKDSLYKDAMQYASESKDTELAEELLQWFLQEEKRECFGACLFTCYDLLRPDVVLELAWRHNIMDFAMPYFIQVMKEYLTKVDKLDASESLRKEEEQATETQPIVYGQPQLMLTAGPSVAVPPQAP
B3: LMNA dimer 31-311 (Homo sapiens, UniProt P02545); chain EKEDLQELNDRLAVYIDRVRSLETENAGLRLRITESEEVVSREVSGIKAAYEAELGDARKTLDSVAKERARLQLELSKVREEFKELKARNTKKEGDLIAAQARLKDLEALLNSKEAALSTALSEKRTLEGELHDLRGQVAKLEAALGEAKKQLQDEMLRRVDAENRLQTMKEELDFQKNIYSEELRETKRRHETRLVEIDNGKQREFESRLADALQELRAQHEDQVEQYKKELEKTYSAKLDNARQSAERNSNLVGAAHEELQQSRIRIDSLSAQLSQLQK
B4: NR3C1/ESR1 and 1-527 (Homo sapiens); sequence looked up; chain MDSKESLTPGREENPSSVLAQERGDVMDFYKTLRGGATVKVSASSPSLAVASQSDSKQRRLLVDFPKGSVSNAQQPDLSKAVSLSMGLYMGETETKVMGNDLGFPQQGQISLSSGETDLKLLEESIANLNRSTSVPENPKSSASTAVSAAPTEKEFPKTHSDVSSEQQHLKGQTGTNGGNVKLYTTDQSTFDILQDLEFSSGSPGKETNESPWRSDLLIDENCLLSPLAGEDDSFLLEGNSNEDCKPLILPDTKPKIKDNGDLVLSSPSNVTLPQVKTEKEDFIELCTPGVIKQEKLGTVYCQASFPGANIIGNKMSAISVHGVSTSGGQMYHYDMNTASLSQQQDQKPIFNVIPPIPVGSENWNRCQGSGDDNLTSLGTLNFPGRTVFSNGYSSPSMRPDVSSPPSSSSTATTGPPPKLCLVCSDEASGCHYGVLTCGSCKVFFKRAVEGQHNYLCAGRNDCIIDKIRRKNCPACRYRKCLQAGMNLEARKTKKKIKGIQQATTGVSQETSENPGNKTIVPATLPQTADQMVSALLDAEPPILYSEYDPTRPFSEASMMGLLTNLADRELVHMINWAKRVPGFVDLTLHDQVHLLECAWLEILMIGLVWRSMEHPGKLLFAPNLLLDRNQGKCVEGMVEIFDMLLATSSRFRMMNLQGEEFVCLKSIILLNSGVYTFLSSTLKSLEEKDHIHRVLDKITDTLIHLMAKAGLTLQQQHQRLAQLLLILSHIRHMSNKGMEHLYSMKCKNVVPLYDLLLEMLDAHRLHAPTSRGGASVEETDQSHLATAGSTSSHSLQKYYITGEAEGFPATV

| Molecule | technique | medium | pH | temperature | notes | together with | subunits per oligomer |
| --- | --- | --- | --- | --- | --- | --- | --- |
| gsnl-1 fragment (Caenorhabditis elegans) (sequence not shown) | SEC | – | – | – | – | – | 2 |
| B1 (CD207 148-328) | AUC | – | – | 20 °C | – | CaCl2.5 mM | 3 |
| Grifin (Mus musculus, UniProt Q9D1U0) | SEC | lysate | – | – | not purified | – | 2 |
| CRYAA R21L (Homo sapiens) (sequence not shown) | non-reducing SDS-PAGE | – | – | – | – | – | 2 |
| B2 (CLTC 1521-1654 C1528A/T1585L) | crystal structure | – | – | – | – | – | 3 |
| B3 (LMNA dimer 31-311) | SEC | – | – | – | – | – | 2 |
| BACH1 fragment (Homo sapiens) (sequence not shown) | SEC-MALS | – | – | – | – | – | 2 |
| B4 (NR3C1/ESR1 and 1-527) | sedimentation velocity AUC | – | pH 8.0 | 4 °C | NaCl 100 mM | E2 | 2 |

Excerpt of the above:
| Molecule | technique | medium | pH | temperature | notes | together with | subunits per oligomer |
| --- | --- | --- | --- | --- | --- | --- | --- |
| B1 (CD207 148-328) | AUC | – | – | 20 °C | – | CaCl2.5 mM | 3 |
